Assay results pooled from the literature.
Numbered parts are unrelated; each lists some results of a single study. Substitutions count along the parent as printed.

Series 1
Target: Phosphate system positive regulatory protein PHO4, full length, GST-tagged (PHO4, Saccharomyces cerevisiae, UniProt P07270, residues 1-312)
Method: competition protein-binding microarray
Form: double-stranded DNA, one strand shown
Medium: in vitro
Concentration: 2 µM
Setting: whole 60-bp probe, lowest competitor level
Added: Cbf1 competitor, 0.05 µM
Reading: higher = stronger binding
Target sequence (chain): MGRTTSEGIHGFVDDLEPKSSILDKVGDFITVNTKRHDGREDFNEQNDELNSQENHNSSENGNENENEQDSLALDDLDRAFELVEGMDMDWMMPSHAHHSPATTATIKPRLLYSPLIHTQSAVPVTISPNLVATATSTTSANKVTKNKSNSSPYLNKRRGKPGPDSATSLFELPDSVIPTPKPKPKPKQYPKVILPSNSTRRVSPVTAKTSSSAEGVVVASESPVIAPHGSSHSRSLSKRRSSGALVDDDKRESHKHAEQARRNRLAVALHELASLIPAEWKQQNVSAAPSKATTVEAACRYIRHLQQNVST
With `GAAGTATTTTTTGCGAACGTGGAAGTATTTCACCCAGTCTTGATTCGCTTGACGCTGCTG` the fluorescence intensity was 10500 a.u.
The fluorescence intensity of `CATACCCAACCTTGGTATGTGGGTGAAGATATTTGTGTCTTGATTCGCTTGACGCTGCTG` is reported as 5010 a.u.
`TATATCTTTCTATTTCACGTTCACCTTCACCTCTGCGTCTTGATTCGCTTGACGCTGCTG` gave a fluorescence intensity of 7220 a.u.
With `GGCTAAAACGAAGCCATCGTGCAAAATGGTAAGTTCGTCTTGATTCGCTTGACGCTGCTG` the fluorescence intensity was 9420 a.u.
`TGTAAATGATGATAACGTAAAAGCACTGTTGATAATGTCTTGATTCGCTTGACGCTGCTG` gave a fluorescence intensity of 4200 a.u.
The fluorescence intensity of `TTATCAAGAAACCGTCACAGAAGGAGCTCACTCTGGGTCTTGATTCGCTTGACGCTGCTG` is reported as 2690 a.u.
With `TACGACGGCATTGGGCCCGTGGGTACTCACCGGGTTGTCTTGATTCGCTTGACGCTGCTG` the fluorescence intensity was 8550 a.u.
For `ACACACATTCTCCGTCACATGGACGATGCCAGAGTCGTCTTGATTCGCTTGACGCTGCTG`, the fluorescence intensity was 9580 a.u.
For `GTCTTGTCTCATTCACACGTGTTTTTCCCCACTTCAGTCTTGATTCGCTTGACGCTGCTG`, the fluorescence intensity was 16700 a.u.
`AGAATGTCCCCTGTACACGTGGCAGATTGGCTGAAAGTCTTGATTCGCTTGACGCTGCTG` has a fluorescence intensity of 17600 a.u.

Series 2
Target: ATF3, bZIP domain (human)
Method: DHFR protein complementation
Medium: yeast
Setting: single substitutions, most at no-binding floor
Reference: wild-type JUN-FOS pair
Reading: higher = stronger binding
Starting sequence: JUN, bZIP domain (human); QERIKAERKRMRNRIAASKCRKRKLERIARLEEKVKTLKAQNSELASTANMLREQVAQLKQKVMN; partner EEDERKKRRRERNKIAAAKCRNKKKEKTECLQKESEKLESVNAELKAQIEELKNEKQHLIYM
For `L45W`, the binding fitness was -0.924 natural log.
`E54H` gave a binding fitness of -0.222 natural log.
For `A40R`, the binding fitness was -0.0689 natural log.
`K34T` gave a binding fitness of -0.25 natural log.
`T37Q` gave a binding fitness of 0.0395 natural log.
The binding fitness of `L45K` is reported as -1.39 natural log.
For `S43H`, the binding fitness was -0.0478 natural log.
With `I28M` the binding fitness was -0.0487 natural log.

Series 3
Target: CCND1, cyclin fold, Cln2 fusion (human)
Method: yeast growth competition, sequencing
Medium: yeast
Setting: strong parent motif
Reference: not given
Reading: higher = stronger binding
Starting sequence: PKN2 docking peptide (human); VSAVRKLDFSDTM; partner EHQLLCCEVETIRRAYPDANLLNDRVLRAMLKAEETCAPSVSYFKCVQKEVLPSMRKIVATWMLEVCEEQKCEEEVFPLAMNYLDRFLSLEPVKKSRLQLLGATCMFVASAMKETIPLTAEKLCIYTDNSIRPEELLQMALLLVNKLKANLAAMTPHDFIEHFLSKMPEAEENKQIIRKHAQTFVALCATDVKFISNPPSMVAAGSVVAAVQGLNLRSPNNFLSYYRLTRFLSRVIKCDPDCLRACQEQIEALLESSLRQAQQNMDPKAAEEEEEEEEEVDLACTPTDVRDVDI
`D8H` — result for “normalised enrichment score”: 2.76.
`R5V`: “normalised enrichment score” 2.24.
`L7G`: “normalised enrichment score” -0.0297.
Under “normalised enrichment score”, `K6N` is recorded as 1.91.
Under “normalised enrichment score”, `D11F` is recorded as 4.2.
`D11N` — result for “normalised enrichment score”: 4.86.
Under “normalised enrichment score”, `L7E` is recorded as 0.148.
`D11M`: “normalised enrichment score” 4.13.
`V4Y` — result for “normalised enrichment score”: 1.98.

Other studies, line by line
With `PhoQ, residues 284 288 289 292 302 303 HSYLQF` the fold induction was 1.78 (PhoP, residues 12 14 15 18 19 IFFTR (Escherichia coli, UniProt P23836); Sort-seq, item: YFP reporter; E. coli; PhoQ-PhoP variant library, added: 10 µM Mg2+; reference: high Mg2+ state, higher = stronger signaling).

For quick reference, copied from above (series 2):
For `S43H`, the binding fitness was -0.0478 natural log.
With `I28M` the binding fitness was -0.0487 natural log.
